Experimental data from different studies.
Parts stem from different laboratories: compare values within a part only. “And” joins repeats or separate records; there may be more than shown.

Set 1
SMILES: C=CCN1C(=O)C(O)(C(=O)O)Oc2cc(F)ccc21 (stereo not shown)
For Arabidopsis thaliana; root length; Col-0, seedlings; 6.25 µg/mL; relative to: water control: inhibition read 17.6%.
It gave 53.3% and 59.2% and 60.3% for inhibition (Amaranthus retroflexus; fresh weight; 150 g ai/ha, post-emergence treatment).
The inhibition was 28.5% (Arabidopsis thaliana; root length; Col-0, seedlings; 50 µg/mL; relative to: water control).

Set 2
SMILES: Cn1cc(-c2cccc(CN3CCC4(CC3)COc3c4ccc4c3CN(C3CCC(=O)NC3=O)C4=O)c2)cn1 (stereo not shown)
Target: CRBN/Zinc finger protein Helios (Homo sapiens, UniProt Q96SW2+Q9UKS7)
Sequence of UniProt Q9UKS7 (whole entry, looked up): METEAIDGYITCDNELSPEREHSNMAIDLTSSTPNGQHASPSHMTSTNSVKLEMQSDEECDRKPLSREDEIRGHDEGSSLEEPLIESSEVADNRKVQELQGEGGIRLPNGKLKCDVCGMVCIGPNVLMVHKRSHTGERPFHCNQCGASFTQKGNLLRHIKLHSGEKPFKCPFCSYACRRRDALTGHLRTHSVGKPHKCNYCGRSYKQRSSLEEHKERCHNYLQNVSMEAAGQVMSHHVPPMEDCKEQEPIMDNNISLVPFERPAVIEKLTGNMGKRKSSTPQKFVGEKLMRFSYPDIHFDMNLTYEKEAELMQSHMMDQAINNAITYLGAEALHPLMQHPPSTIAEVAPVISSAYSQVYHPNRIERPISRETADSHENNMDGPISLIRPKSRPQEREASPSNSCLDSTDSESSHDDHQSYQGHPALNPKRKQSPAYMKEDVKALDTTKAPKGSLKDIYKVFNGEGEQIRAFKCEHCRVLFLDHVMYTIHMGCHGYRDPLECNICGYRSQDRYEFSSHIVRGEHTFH
Sequence of UniProt Q96SW2 (whole entry, looked up): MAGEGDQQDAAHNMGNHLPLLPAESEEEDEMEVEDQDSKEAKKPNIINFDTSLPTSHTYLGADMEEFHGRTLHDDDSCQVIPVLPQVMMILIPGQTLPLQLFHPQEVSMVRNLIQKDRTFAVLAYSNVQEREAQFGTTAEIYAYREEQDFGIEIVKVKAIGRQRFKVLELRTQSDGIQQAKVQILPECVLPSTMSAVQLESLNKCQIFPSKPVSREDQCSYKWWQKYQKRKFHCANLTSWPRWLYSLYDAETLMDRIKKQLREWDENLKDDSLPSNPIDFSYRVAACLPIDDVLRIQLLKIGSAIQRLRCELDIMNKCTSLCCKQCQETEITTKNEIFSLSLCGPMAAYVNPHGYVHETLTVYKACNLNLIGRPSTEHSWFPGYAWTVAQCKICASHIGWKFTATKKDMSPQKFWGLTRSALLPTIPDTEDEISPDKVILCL
Action: degrader
Method: HiBiT
Cells: HEK293
0.01694 nM — protein remaining: 112%.
The protein remaining was 16% (37.04 nM).
The protein remaining was 73.1% (0.4572 nM).
The protein remaining was 19% (12.35 nM).

Mixed results
For `NS(=O)(=O)c1ccccc1OCC(=O)NCC(F)(F)c1ccc(F)c(F)c1`, the dead β-cells was 33.6% and 37.4% and 63.4% and 34.3% (human islet β-cells; β-cell death; human; 10 µM, 24 h, with: 20 mM glucose + 500 µM palmitate; relative to: GFP+ cells).
For `CCCCC[C@@H]1CC(=O)N[C@@H](C(C)C)C(=O)N[C@H](CCCNC(=N)N)C(=O)N[C@@H](C(C)C)C(=O)NCC(=O)N2CCC[C@H]2C(=O)N[C@@H](CC(C)C)C(=O)N[C@H](CCCNC(=N)N)C(=O)N[C@@H](CCC(=O)O)C(=O)N[C@H](Cc2ccc(O)cc2)C(=O)N[C@H](Cc2c[nH]c3ccccc23)C(=O)NCCCC(=O)O1`, the viable cells was 1700 CFU/mL and 1800 CFU/mL and 2100 CFU/mL (Staphylococcus aureus; USA300; 2 x MIC, 30 min).
For `O=C(COc1ccccc1P(=O)(O)O)NCC(F)(F)c1ccccc1`, the dead β-cells was 17.7% and 6.39% and 9.43% and 7.51% (human islet β-cells; β-cell death; human; 10 µM, 24 h, with: 20 mM glucose + 500 µM palmitate; relative to: GFP+ cells).
